Measured values pooled from the literature.
A part holds a random share of what one study measured.

Study 1
Target: PABPC1L2, full length, GST fusion (mouse, UniProt A0ABA7IW68)
Method: RNAcompete
Molecule type: RNA
Medium: in vitro
Concentration: 20 nM
Notes: 7-mer, probes averaged, single round
Reference: mean of 7-mers
Direction: higher = stronger binding
Measurement: 7-mer Z-score
Construct (chain): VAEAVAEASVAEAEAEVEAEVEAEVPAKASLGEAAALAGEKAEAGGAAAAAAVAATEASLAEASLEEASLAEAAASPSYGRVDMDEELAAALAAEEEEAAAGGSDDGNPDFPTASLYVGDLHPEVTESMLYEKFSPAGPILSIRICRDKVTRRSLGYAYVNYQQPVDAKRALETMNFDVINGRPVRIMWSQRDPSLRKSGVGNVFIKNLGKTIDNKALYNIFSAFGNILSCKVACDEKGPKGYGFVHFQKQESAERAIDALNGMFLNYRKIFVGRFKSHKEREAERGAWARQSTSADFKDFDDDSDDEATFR
GGAACAC: 0.126
CUCCUGA: -0.258
GGUGCAA: 0.349
AAAUUAG: 2.09
AGCAUCA: 0.0152
CAGGAUU: -0.0047
CCCUGAG: -0.311
AAAAAUU: 16.1
CGCCUGA: -0.222
AGCGUUA: -0.171
AGGCGUG: 0.202
ACAAAAG: 2.49
GCCAUGU: -0.199
AUGGAGC: -0.0138
CAGGUUU: -0.244
AGAGCAG: -0.0536
AGUGGGC: 0.389
AAUGGUC: 0.0515
GAUCGAC: -0.13
CAUUUUG: -0.199
GAUUUAU: -0.0228
CAAAUCG: 0.169
GAAUCAC: -0.0301
ACUUGAU: 0.0732
ACGGCCA: 0.000733

Study 2
Target: Sal-like protein 4, full length isoform A (SALL4, Homo sapiens, UniProt Q9UJQ4, residues 1-1053)
Chain of UniProt Q9UJQ4 (whole entry, looked up): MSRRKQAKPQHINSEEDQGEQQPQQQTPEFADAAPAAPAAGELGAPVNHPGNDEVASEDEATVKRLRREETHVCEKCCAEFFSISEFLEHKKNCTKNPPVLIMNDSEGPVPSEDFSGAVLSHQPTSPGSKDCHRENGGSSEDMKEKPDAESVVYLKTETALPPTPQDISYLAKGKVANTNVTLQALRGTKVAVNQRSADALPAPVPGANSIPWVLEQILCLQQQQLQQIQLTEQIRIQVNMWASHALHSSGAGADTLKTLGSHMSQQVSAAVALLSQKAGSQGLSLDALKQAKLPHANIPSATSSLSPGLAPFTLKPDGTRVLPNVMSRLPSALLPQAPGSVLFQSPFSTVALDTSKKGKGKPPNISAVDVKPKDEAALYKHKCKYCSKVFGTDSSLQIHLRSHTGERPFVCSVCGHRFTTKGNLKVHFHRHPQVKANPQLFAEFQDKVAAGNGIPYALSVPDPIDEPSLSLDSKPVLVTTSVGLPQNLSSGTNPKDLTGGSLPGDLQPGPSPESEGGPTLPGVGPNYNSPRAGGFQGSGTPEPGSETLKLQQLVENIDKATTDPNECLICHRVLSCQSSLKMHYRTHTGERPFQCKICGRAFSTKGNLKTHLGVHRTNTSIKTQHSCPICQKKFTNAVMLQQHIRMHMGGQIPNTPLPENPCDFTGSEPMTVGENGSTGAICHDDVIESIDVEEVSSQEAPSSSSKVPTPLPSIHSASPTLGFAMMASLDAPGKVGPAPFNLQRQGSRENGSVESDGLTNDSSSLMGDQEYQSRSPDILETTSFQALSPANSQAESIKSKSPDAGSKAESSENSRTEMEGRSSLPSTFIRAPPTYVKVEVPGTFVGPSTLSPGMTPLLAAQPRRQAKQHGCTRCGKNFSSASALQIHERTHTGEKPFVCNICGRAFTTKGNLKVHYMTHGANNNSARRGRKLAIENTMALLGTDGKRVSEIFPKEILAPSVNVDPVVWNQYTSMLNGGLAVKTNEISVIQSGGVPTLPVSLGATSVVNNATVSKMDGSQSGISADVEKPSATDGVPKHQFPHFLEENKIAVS
Method: universal PBM
Molecule type: double-stranded DNA, one strand shown
Medium: in vitro
Concentration: 600 nM
Notes: 8-mer, flanks averaged, mean of replicates
Direction: higher = stronger binding
Measurement: E-score
GACTACTC: -0.139
AAAAGAGA: 0.0855
ATGCTCAA: 0.0203
CGGTGTAA: -0.174
GCACTCCC: -0.159
CTAGGCTC: -0.264
ATGGACGC: -0.202
CCGAGGTC: -0.394
ATTTCCGC: 0.0101
AGGTTTCC: -0.0753
CAGCTCCC: -0.329
CACCCGGA: -0.232
CAGTCGTC: -0.108
ACGATGGG: -0.216
AGGGTTAG: -0.214
AGTTACGA: 0.114

Study 3
Target: RING finger protein unkempt homolog, zinc fingers 1-6, GST-SBP tag (UNK, Homo sapiens, UniProt Q9C0B0, residues 30-357)
Chain of UniProt Q9C0B0 (30-357, looked up): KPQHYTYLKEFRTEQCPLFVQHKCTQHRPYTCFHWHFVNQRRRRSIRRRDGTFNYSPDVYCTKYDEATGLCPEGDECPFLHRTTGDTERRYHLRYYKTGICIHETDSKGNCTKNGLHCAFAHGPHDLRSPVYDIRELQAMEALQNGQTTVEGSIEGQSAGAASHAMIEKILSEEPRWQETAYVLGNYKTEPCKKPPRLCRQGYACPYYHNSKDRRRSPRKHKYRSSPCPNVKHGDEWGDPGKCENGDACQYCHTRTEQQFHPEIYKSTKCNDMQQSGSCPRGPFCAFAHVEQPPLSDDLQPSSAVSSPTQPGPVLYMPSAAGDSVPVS
Method: RNA Bind-n-Seq
Molecule type: RNA
Medium: in vitro
Concentration: not given
Notes: RNA with constant flanks, human and mouse sites, ends assumed
Reference: input RNA pool
Direction: higher = stronger binding
Measurement: bound/input enrichment
Shared flanks, not repeated: GGGAGUUCUACAGUCCGACGAUC … CAACAGAGGAUUGAGCAUCA
AGCAAUAUUCGUACAUUAUGUGAUUUAUGUUUUUGAUGUCAAAAGUUUGUGCUUUGGGUGAAAUAUUUGUAUAACUGCUGUUUUCUUCACUACUCCUGUACACAUUUCACCAUGUGGUCA: 0.44 ratio
GGGAGCAUUGGUGAAAUAGAAUCCUGCAAACUCGUGAGAGACAAAAUCACAGGACAGAGUUUAGGGUAUGGAUUUGUUAACUAUAUUGAUCCAAAGGAUGCAGAGAAAGCCAUCAACACU: 0.112 ratio
GAAGUUGCAAGCAAUGUUCCAAAAGUUGUAGGUUCUGCUGUUGGUAGCGGGUCCAUUACUAGUAACAUCGUGGCUUCCAAUAGUUUGCCUCCAGCCACCAUUGCUCCUCCAAAACCAGCA: 0.356 ratio
GAAAGAGUUUUGUCAUUCAUUCCUCCAGAUGGAAAUUUCCGACUCAUAUCGUAUCGUGUCAGCUCACAAAAUCUAGUGGCAAUACCAGUGUAUGUGAAACACAGUAUCAGCUUUAAGGAA: 0.229 ratio
AUAGAAGGACCUAUAAUUAAGUUAAUGAUUCUUCCAGACCCAGAAAAACCCGUUCGUCUCAAUGUUAAAUAUGACAAAGAUGCAUCCUUCUUAGCAGGGGGUCUUUUCACUGAUUUUAUG: 0.124 ratio
GGAGGACACACUGAACUGAAGGGGACUUGCGCGGAUGUGGGAGAUGCAAGCCUUCGCUUUAUUUUUUUAUAACUAUCAACUGCCAUCAUGUUUUGUAAUUUGGGGAUCUUGAUUUCACCG: 1.79 ratio
UAUUUCAUGAAGCCACUGCAUGGUAAAUAUGCAACUUCACGUUUUUCUGUUUUUAACACAUUUAGACCUUGGUUAAAAAUUCCUUUUGUUUAUGAUAAUUGUUUUUGCCAUUUGUAUAUU: 0.647 ratio
AGUAAACCUGGCAGCUAUAGAAUACACUAUGUGCAUUUAUAAUAGCUAUUUUAUAUAUUGUAGUAUCAACAUUUUUAAAUUAAAUGUUUUACAUUCACAAGUGGUGGGGAGUCUUGUCAU: 2.77 ratio
AAAGAUAUAGAUUGUGUAUACGAAGCUUUAUUGAACACUGCCAUUGACGUAGAUUCAUUAGAAGCAAACUCACAUUUAGAUGAAGUCUGGAUCAAAGAAGUUAUAAAGAAGGCAGGAAUG: 0.72 ratio
CUCCCUGAAGUGACGGAUGAGUAUAAGAAUGAUGUAAAAAACAGAUCUGUUUAUAUUAAAGGUUUCCCAACUGACGCCACCCUUGAUGAUAUAAAAGAAUGGCUAGACGAUAAAGGCCAA: 0.478 ratio
GUGGCAGACGCUGUCACUUACCAGCUUGGUUUCCACAGUAUUGAACUGAACGAGCCUCCACUAGUCCACACAGCCGCCAGUCUCUUUAAGGAGAUGUGUUACCGGUACAGAGAAGAUCUG: 0.714 ratio

Study 4
Target: Histone acetyltransferase KAT6A, both winged helices, GST fusion (KAT6A, Homo sapiens, UniProt Q92794, residues 1-181)
Method: protein binding microarray
Molecule type: double-stranded DNA, one strand shown
Medium: in vitro
Concentration: not given
Notes: 8-mer, flanks averaged, mean of 2 arrays, mostly near background
Reference: not given
Direction: higher = stronger binding
Measurement: E-score
Target sequence (chain): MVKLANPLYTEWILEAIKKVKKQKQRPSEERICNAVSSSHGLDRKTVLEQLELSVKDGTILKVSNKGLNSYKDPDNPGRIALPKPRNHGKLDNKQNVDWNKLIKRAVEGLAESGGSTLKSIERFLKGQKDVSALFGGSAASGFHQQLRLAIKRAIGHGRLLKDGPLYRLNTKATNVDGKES
GGGCGCCA: 0.215
AGCGCTCA: 0.31
GGGTTGGA: -0.149
CTCATAAA: 0.0967
CTGCTTCC: -0.0407
CGGCCCTA: 0.112
TCTGATAA: -0.0361
GACTAGTA: -0.0518
CTGTTAAG: 0.0506
AACGCGTA: 0.26
CCCGCGCG: 0.406
CAACCATA: -0.164
CAATTATA: -0.225
AGGGCAAC: -0.09
ACTGATGC: -0.075
AAGGAGCT: -0.108
CAGAGTAC: 0.034
CCCCGTTC: 0.116
ATAACCAC: -0.108
AGCTTCCT: 0.0108
ACAGTAAC: -0.0807
AGCTAGAC: 0.0748
ACACGCGG: 0.247
CTGGTACC: -0.0457
GCGCGGCA: 0.358

Study 5
Target: Interferon regulatory factor 7, full length, phosphomimetic (IRF7, Homo sapiens, UniProt Q92985, residues 1-503, S471D/S472D/S475D/S476D/S477D/S483D/S484D/S487D)
Chain of UniProt Q92985 (whole entry, unmodified, looked up): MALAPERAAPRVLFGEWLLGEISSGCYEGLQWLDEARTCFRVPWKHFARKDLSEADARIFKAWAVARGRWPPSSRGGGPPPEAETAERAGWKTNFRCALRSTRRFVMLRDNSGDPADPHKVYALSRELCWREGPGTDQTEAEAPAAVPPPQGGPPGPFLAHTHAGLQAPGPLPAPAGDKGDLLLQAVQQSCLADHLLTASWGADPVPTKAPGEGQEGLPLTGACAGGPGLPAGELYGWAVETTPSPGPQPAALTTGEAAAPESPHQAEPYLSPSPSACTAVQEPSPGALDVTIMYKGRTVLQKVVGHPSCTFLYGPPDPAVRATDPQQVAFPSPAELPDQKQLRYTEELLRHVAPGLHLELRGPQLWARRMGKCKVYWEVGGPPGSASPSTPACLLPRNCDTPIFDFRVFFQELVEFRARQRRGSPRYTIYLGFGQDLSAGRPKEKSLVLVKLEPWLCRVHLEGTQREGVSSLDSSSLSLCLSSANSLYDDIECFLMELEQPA
Method: protein-binding microarray
Molecule type: double-stranded DNA, one strand shown
Medium: in vitro
Concentration: 2200 nM top
Notes: 60-bp whole probe
With: salmon DNA 0.4 mg/ml
Reference: random background probes
Direction: higher = stronger binding
Measurement: fitted relative affinity
Shared flanks, not repeated: GCCTAGCAC … GTCTTGATTCGCTTGACGCTGCTG
TCACTTTTCATGCTCTTACTGTGCTAG: 3.19 z-score
TCAACTTTGGCATGTCTTACTGTGCTA: 0.544 z-score
GACGATTTCGGGACTGGAGCCGTGCTA: 1.13 z-score
TTAGGTATCGGGATCGGTTAGTGCTAG: 0.643 z-score
GACGGTATTCTTATCCTGACGTGCTAG: 0.499 z-score
TTAGAAATGGGGACTGGATTAGTGCTA: -0.535 z-score
TCAAAAATAGAAACTCGTACTGTGCTA: -0.636 z-score
GACGGTGTCGGTCTCGGGACGTGCTAG: -0.588 z-score
AATCATTTTCGTTTTTATTAGTGCTAG: 10.8 z-score
TTAGGTCTCCTTCTCTTTTAGTGCTAG: 1.2 z-score
ATTGTTTTCAGTTTCACTGCGTGCTAG: 6.32 z-score
TTAGGGATCCTTTTCCTTTAGTGCTAG: 0.737 z-score
TTAGGTATCGACACTGCGTTAGTGCTA: -0.0067 z-score
GACGGACTGCTACTACTGACGTGCTAG: 0.321 z-score
GACGGTATCGGGACTGGGGACGTGCTA: -0.543 z-score
TTAGGTCTCGGTTTCGGTAAGTGCTAG: 3.86 z-score
TCAAGGTTGTTTCTAATACTGTGCTAG: 0.553 z-score
GACAATCTCAGTTTCGAGACGTGCTAG: 3.45 z-score
GACGGTTTCCTTATACTGACGTGCTAG: 2.47 z-score
TTAGGTATCGGGACTAGGTTAGTGCTA: -0.295 z-score
GACGGTTTCGGTTTCAGGACGTGCTAG: 13.2 z-score
TCAGTCATCTATAATGGAACTGTGCTA: 0.0295 z-score
CTTAGACTGTCCTGCTGGAGGTGCTAG: 0.0882 z-score

Study 6
Target: RNA binding protein fox-1 homolog 2, RRM domain, GST-SBP tag (RBFOX2, Homo sapiens, UniProt O43251-10, residues 100-194)
Method: RNA Bind-n-Seq
Molecule type: RNA
Medium: in vitro
Concentration: 365 nM
Notes: natural RNA segment, single round, ends assumed
Reference: no-protein control
Direction: higher = stronger binding
Measurement: RBNS enrichment (R)
Shared flanks, not repeated: GGGAGUUCUACAGUCCGACGAUC … UGGAAUUCUCGGGUGCCAA
Target sequence (chain): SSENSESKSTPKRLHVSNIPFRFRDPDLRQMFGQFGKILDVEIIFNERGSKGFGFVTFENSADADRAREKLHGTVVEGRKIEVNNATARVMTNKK
CCAUCAUUUGAUCAUAGCACUGUGAUUGCUUUUGAUGUGUGUCUCUAGUGGUGUGCUGUCUGUUGGCAUGCUUAAAGCACAUGUCCAUUAAAAUUCAUUUUGUUCCUUUU: 0.964
UUUGGUUUAUUUUGUUAUUUUGUUUUGUUUUUGUUUUUUUGGUUUCAUUUUGUUUUGGGUUGGUCCAAUUUUAAAAGGAAAUACUACAAUAAAAAUGUUAACCAGAAGGU: 3.77
CCCUUUCCCUGGGGCCAGAUCAGGACACAGCACAGGGCAGGAGGCCCUGCCUAGCUUAAAGUAUAGUCAUGAGAUGGAGUUGGGAGCACUAUACUGGUCACUUACCACCU: 0.503
CGUUUUCUCCCCGUGUGCUUUCCUGCAGAAUCCUUGCCUUUCCGUUGUUAGGUUGGGUUUUCUAUAUGAAUUAUCAUCUGGAAUUCUGUAGCACACCUCAUAGGUAUGGA: 0.214
CGGGUGUUCUGGGGUGUCUGCCCUCUGUCGGCCCUGCUUCCUGCCAGGACGUGGCCUCUUCCGAUCCUUUUCUCUCAGACACUGGAGGUCUCUUCUGCCAUUGUGCUGGU: 0.334
GGAUUUUCUUUUAAACUAAACCUUUCUACUCGCCCGGAAAAAUUCCUUGGAGAUAUCGAAGUAUGGGAUCAAGCUGAGAAAGAACUUGAAAACAGUCUGAAUGAAUUUGG: 0.397
GUUUCUCGGUUUCCCCAGUGCUGAAGACAGCAUUGCCAUCCAAAGAAACUCACAUUUUCUUUAAAGCUAUCACACUUUGUCUUCUUAUCCCCUGCUUCCUGUUCCUUCAG: 0.688
GAGAGUCCCAUGCCACCCGUCCCCUUGUGACCUCCCCCCUCUGACCUCCAGCUGACCAUGCAUGCCACGUGGCUGGCUGGGUCCUCUGCCCUCUCUGGAGUUUGCCUCCC: 5.9
ACUAACUUUGUAAAAUGUGUCUGGACCACAAGAGGAUACAGGAGAAGUGCUACCUCUGAUCUAACUAGAGCAAGCUCAUGGCAGAAAAUAUCACAAACUUUAAAAUGUGA: 0.394
AAGUGUGGGCUUUUGUUUCUUACAUUCCUCUGCAAUGGCCUGGCUGGCCUGGUGACCUCUAGGACCAAAGUCUUCCUGGAGCUGACCUCUAUGGUGUGGAGUGGUGGCAG: 0.367
AGUUCCUUUGAGGAGGACCCCCUGGGAGCAGUCAAGCUGGAAGAUAGCUACCUGCAAGACACUACUGUCCCUCUACUUUUGCCAGGAAAGCCACUCUACUAUGAAUGUUA: 0.806
UCUGAGAAGUGCAGGGGAGACAAAUGAAUGCAGUGUCCAUCCAGCUCUGGGUUUUCUUUAUCCUGCCUCCCGAGACUUCUGACCCCCCUUUCCCAGCUUCAGAUCUUGGG: 2.09
